Assay results gathered from unrelated publications.
Each numbered part is a random draw from the data of one study; scales do not carry over between parts.

Block 1
Target: Interferon regulatory factor 7, full length, phosphomimetic (IRF7, Homo sapiens, UniProt Q92985, residues 1-503, S101K/S471D/S472D/S475D/S476D/S477D/S483D/S484D/S487D)
Sequence of UniProt Q92985 (whole entry, unmodified, looked up): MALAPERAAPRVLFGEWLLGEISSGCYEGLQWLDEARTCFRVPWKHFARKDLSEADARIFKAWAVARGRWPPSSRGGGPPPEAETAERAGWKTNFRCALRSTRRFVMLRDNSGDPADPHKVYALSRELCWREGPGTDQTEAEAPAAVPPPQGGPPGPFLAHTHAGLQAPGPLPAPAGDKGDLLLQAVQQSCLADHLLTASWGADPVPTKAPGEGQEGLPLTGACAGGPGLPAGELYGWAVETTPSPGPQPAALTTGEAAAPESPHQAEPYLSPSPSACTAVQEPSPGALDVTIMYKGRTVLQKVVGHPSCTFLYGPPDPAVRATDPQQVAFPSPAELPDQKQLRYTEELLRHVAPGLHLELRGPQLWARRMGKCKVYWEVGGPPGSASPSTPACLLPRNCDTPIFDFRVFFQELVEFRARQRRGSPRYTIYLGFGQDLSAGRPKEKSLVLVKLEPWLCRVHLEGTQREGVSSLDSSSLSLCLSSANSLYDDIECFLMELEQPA
Technique: protein-binding microarray
Molecule type: double-stranded DNA, one strand shown
Medium: in vitro
Tested at: 250 nM
Setting: 60-bp whole probe
Together with: salmon DNA 0.4 mg/ml
Baseline: random background probes
Direction: higher = stronger binding
Shared flanks, not repeated: GCCTAGCAC … GTCTTGATTCGCTTGACGCTGCTG
`AACGATTTCAGTTTCGAGACGTGCTAG` gave a log fluorescence of 4.98 z-score.
For `TACGGTTCCCTTTTCCTGACGTGCTAG`, the log fluorescence was 3.26 z-score.
`TCAAATACAAGTTTCTCACTGTGCTAG` has a log fluorescence of 0.726 z-score.
The log fluorescence of `GCCGGTTTCCTACTGCTGACGTGCTAG` is reported as 2.04 z-score.
With `TTAGGACTGGACACAGGGTTAGTGCTA` the log fluorescence was -0.561 z-score.
`TTAGGTATCGACTTCCGGTTAGTGCTA` gave a log fluorescence of 2.14 z-score.
With `TCAACTCCAGTTCTGGGACTGTGCTAG` the log fluorescence was -0.43 z-score.
The log fluorescence of `TCAATTATTGCTTCCTCACTGTGCTAG` is reported as 0.627 z-score.
With `TCAGTTTTCTCTATTGCACTGTGCTAG` the log fluorescence was 1.18 z-score.
The log fluorescence of `GAAAATGCCCTTTTGGTGAGGTGCTAG` is reported as 0.314 z-score.
For `TCAATCATTGTTTTCAGACTGTGCTAG`, the log fluorescence was 0.243 z-score.
For `TTTGGTTTCGGGTATCGGTTAGTGCTA`, the log fluorescence was 8.96 z-score.
`CTTTTTTTCTTTTATTAGTGGTGCTAG` gave a log fluorescence of 2.82 z-score.
`GACGGAATCCTTCTCCTGACGTGCTAG` gave a log fluorescence of -0.374 z-score.
The log fluorescence of `TTAGATATCGGACTGGGTTAGTGCTAG` is reported as 0.194 z-score.
For `TCAAATTTTGTCATCTAACTGTGCTAG`, the log fluorescence was -0.192 z-score.
`GACGATATCGGTTATCGAGACGTGCTA` has a log fluorescence of 0.197 z-score.
With `TTAGATTTCCTTTTCCTTTAGTGCTAG` the log fluorescence was 2.45 z-score.
The log fluorescence of `GACGTACTGAGTCTCGAGACGTGCTAG` is reported as 0.321 z-score.
The log fluorescence of `GTGTTCTGGGCAGCAGAGGGGTGCTAG` is reported as 0.382 z-score.
With `GACTGTTTCCTTTTCCTGACGTGCTAG` the log fluorescence was 4.01 z-score.
For `GACGGACTGCTACTGCTTACGTGCTAG`, the log fluorescence was -0.639 z-score.

Block 2
Target: RNA binding protein fox-1 homolog 2, RRM domain, GST-SBP tag (RBFOX2, Homo sapiens, UniProt O43251-10, residues 100-194)
Technique: RNA Bind-n-Seq
Molecule type: RNA
Medium: in vitro
Tested at: 365 nM
Setting: natural RNA segment, single round, ends assumed
Baseline: no-protein control
Direction: higher = stronger binding
Construct (chain): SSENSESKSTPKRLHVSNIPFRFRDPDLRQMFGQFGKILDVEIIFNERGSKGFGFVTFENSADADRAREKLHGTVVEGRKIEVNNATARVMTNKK
For `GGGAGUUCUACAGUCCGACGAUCGAGGACAGGCAUCAAGUUCUUAGCCUCUGUAGCUCUUAGCUUUCCCAUCUUUCCCUGCAAGGCCACACCGUGCAUUUACAGCAGUGUGGCAAGGUGUAGGAGGGACCUUGUGGAAUUCUCGGGUGCCAA`, “RBNS enrichment (R)” read 0.832.
For `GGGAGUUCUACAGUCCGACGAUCCUUGUCCCGCCUCAUCCACAGAAAGGGAGGAUGGGCGAUGACAGUUGUUUCUAUGCCUUCUGACCCAGUUUCCCAGUUUAUAACUUUAUGACAAUGAGUUUCUCAAGCCCUGGAAUUCUCGGGUGCCAA`, “RBNS enrichment (R)” read 0.638.
`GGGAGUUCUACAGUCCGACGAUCGCUUGCUUCCAUUGAUCAGUCUUUUACUUGAGGCAUUAAAUAUCUAAUUAAAUCGUGAAAUGGCAGUAUAGUCCAUGAUAUCUAAGGAGUUGGCAAGCUUAACAAAACCCUGGAAUUCUCGGGUGCCAA` — result for “RBNS enrichment (R)”: 0.446.
`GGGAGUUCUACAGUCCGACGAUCAGCUUUAAAAGUAAAAAUUCCAGAUUAUUACUGGUGGCUUUUUAAAAUAAAAACAACUUUAACACUUGAACAGCCUGGAUUUUGCCCCAUGUACAGUAAACCUGCGUUUCUGGAAUUCUCGGGUGCCAA` — result for “RBNS enrichment (R)”: 0.634.
Under “RBNS enrichment (R)”, `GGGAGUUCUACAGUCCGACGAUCACAGUCCCUUGUGCCAGGUCAGCUAGCAUGGUGGCCUCCUGCAGAGGACUUGGUUUCUCAUCCACUUGAGGACUAUUUCCAGGUGCCAGGAGAAACCGUGCCCAUUUAGAUGGAAUUCUCGGGUGCCAA` is recorded as 0.516.
Under “RBNS enrichment (R)”, `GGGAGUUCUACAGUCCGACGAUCCAAGCUUGAAAAAUGAUUUCCCAGUAGACAAGAGGCCCCCACCCAUCCUCCAAUUGUGUUUAUUUACAUGAGAAGAUCAUACAAAAGCCCUCCGCUCUAGUCCUAGCAGGUGGAAUUCUCGGGUGCCAA` is recorded as 0.455.
`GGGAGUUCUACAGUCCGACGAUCCAGCUGUGGUCAGGUGACUUCCUGUCCCCUGGCAGCUCUGCUGAGUCCCUGUGUUUGAGCCUCCAGGGAGAAGGGUUUGGGCUGCAUUCUUCUUAUCCCCAUGCACAGAAUGGAAUUCUCGGGUGCCAA`: “RBNS enrichment (R)” 0.643.
Under “RBNS enrichment (R)”, `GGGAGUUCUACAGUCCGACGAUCCUCCUUUUCUAAACCACCUCUGGGACUCAGCUCCCCCCGCCAAAAAAAAUGGGUCUCCUUCUGGGCUCCAGGAUUGUCUCCCCACUCCAGCAUCCCCAAACUGGUACUCCUGGAAUUCUCGGGUGCCAA` is recorded as 2.3.
For `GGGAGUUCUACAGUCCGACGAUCAUAUAUAUAUAUUUAAAACGUUUCUUUUCUGUAUGAUGUGCAUGCAAGUUUACCGUAACUUUUCUUAAACUUUUUAGUGCCGUUUCUAGUAUAUUCCUGUAAAUGUCAGUUGGAAUUCUCGGGUGCCAA`, “RBNS enrichment (R)” read 48.6.
`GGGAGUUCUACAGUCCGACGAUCCCUGGUGACGGGUGUCCAAGAAGCGGUUUCCUUGGGAGCUUCUGCCUCCGUGGGCCUCUCAGCCCGCCCCGUGUGGCCGCCCGGGUGUGGCUCAGCCAUGUCCCCUCCCCUGGAAUUCUCGGGUGCCAA`: “RBNS enrichment (R)” 0.254.
For `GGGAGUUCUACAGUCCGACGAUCGGCUCAGAUGUGUUCAUCAAAUACUCCUUUCAGAGCUGUUGUGGGUGUAAGUGACAUGAUGUGGCCAAAAAUCCAAACUGUGCAGUUGCGUUGUGACAAACAUGCAAUGUUGGAAUUCUCGGGUGCCAA`, “RBNS enrichment (R)” read 0.417.
Under “RBNS enrichment (R)”, `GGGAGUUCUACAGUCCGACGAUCAGAGAAGGCUGCAGGGAGGGGAGAGAACAGGAGGAUCCCGGGCCAGGGUGACUUCAGUGACAUUCCUUCCCUCCUUCACAAGCACGAAAAACUCGUUCGGAGAAAAGACAUGGAAUUCUCGGGUGCCAA` is recorded as 5.3.

Block 3
Target: RING finger protein unkempt homolog, zinc fingers 1-6, GST-SBP tag (UNK, Homo sapiens, UniProt Q9C0B0, residues 30-357)
Technique: RNA Bind-n-Seq
Molecule type: RNA
Medium: in vitro
Tested at: not given
Setting: RNA with constant flanks, ends assumed
Baseline: input RNA pool
Direction: higher = stronger binding
Target sequence (chain): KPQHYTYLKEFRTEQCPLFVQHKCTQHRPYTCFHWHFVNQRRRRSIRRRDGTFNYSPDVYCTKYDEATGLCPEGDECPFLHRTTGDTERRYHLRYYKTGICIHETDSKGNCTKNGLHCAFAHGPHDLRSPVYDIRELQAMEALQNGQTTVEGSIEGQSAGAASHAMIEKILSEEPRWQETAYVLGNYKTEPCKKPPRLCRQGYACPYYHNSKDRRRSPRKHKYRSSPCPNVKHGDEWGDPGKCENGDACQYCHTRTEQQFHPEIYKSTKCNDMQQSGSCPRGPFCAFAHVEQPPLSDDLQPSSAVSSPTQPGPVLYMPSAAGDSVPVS
`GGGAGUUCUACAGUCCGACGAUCUUAGAUUCUGGAAAAUUUCGAGUUUUAGGAUGCAUCUUGUCUGAAUUGAAACAGAAGGGUGACCGAGUUGUGUUAUUUAGCCAAUUUACCAUGAUGCUGGAUAUCUUAGAGGUUCUAUUACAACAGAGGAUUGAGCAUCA` has a bound/input enrichment of 1.01 ratio.
For `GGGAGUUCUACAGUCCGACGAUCGCCGCACUCGGACCCGGGAAGCCGUGCUCUCUCCCCGAUUCUCCGCGGAGGACCCCCGGAAAAUUGUGCAAUGAAUGGUGACACUCGGGCCGCAGUGGUGACCUCACCACCUCCAACCACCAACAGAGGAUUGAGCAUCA`, the bound/input enrichment was 0.0985 ratio.
`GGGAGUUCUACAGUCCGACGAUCUUCAAAAUUGGAGCAUGUCGUCAUGGAGACAGGUGCUCUCGGUUGCACAAUAAACCGACGUUCCGCCAGACCAUUGCCCUCUUGAACAUUUACCGUAACCCUCAAAACUCUUCCCAGUCUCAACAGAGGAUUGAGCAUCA` has a bound/input enrichment of 0.117 ratio.
`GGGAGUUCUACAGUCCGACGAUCGCUGGGGCAGAGCUCAGCACCCUCAGCCCUGCGGCCGUUCAUCUUGUGUGUUUGUGACUUACUUUUGCCGCCUGUCAUCUUCUGGGCCCAGAGUCAGGGUCUCUGUGUCCCCUGUGCCUCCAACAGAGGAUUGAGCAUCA` gave a bound/input enrichment of 0.248 ratio.
For `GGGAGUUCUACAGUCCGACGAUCGAGGAUCCGGAACUGGCUAAGUCUUUUAUUAAGACAUUAUUUGGUGUUCUUUAUGAAGUGUACCGUUCCUCAGCAGGACCUGCGGUCAGACAUAAGUGCCUUAGAGCAAUUCUUAGGAUACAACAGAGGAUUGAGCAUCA`, the bound/input enrichment was 0.425 ratio.
`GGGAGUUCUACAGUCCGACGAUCCUGGGGAGUGUCCAGGGUUGGACAAAGCUCCACAGUGACUCUUUACGUAUGGAUGGGGACACCGAUAAGUUUAUAUCUAGGUGAAUACUAACUUGUUCCUUACUAUGAAUUCUAAAGUACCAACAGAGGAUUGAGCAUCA` gave a bound/input enrichment of 0.178 ratio.
The bound/input enrichment of `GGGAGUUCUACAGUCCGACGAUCUCUAAAAUUGUUCGUGUUAGAUCAGAUUUGCUUGAUGAGUUAAUUAAAUCAGGGCAGUUAUCCGGAGUGAAAUUUAUAGCAGAGCUUGGUGUCCCAUUGUCACAGGUUAAAAGCAUCUCACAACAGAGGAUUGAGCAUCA` is reported as 0.325 ratio.
The bound/input enrichment of `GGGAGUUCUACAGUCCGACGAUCCUAGGUGUGAGAGCUCUGGGGCACUGUGGGUGCGGUGAUCUGCAGGUAAAGCCCCACACCACCGACAGUGCUCUGUAGGAAUAUAUGAAGGAUAUUUGCUUCUUGUGAGUCCAUUUCUUACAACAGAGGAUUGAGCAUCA` is reported as 0.498 ratio.
`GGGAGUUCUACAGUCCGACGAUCACACCUUUGGCCAACAUUUCUUCUGAGUAUCCAAUGCAAAGAUCCAUGCCAGUGGUGCCAUCUUUUGCCGCCAGCAACAGAGCAGAUGAAAAUGCCGCUGCAUACUUUGAGAGUCCUAAUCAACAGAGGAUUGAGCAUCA` gave a bound/input enrichment of 0.192 ratio.
For `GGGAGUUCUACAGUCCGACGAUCAUGGGCUUUCAUGUUAUCUAUAAGACACCUUGUGGUCUCUGCCUUCGGACAAUGCAGGAGACCGAACGCUACCUUUUCGAGACUGGCUGUGACUUCCUCUUCCUGGAGAUGUUCUGUUUGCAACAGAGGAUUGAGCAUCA`, the bound/input enrichment was 0.357 ratio.
`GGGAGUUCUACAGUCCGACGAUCCCAAUCGUGGAGCAGUACUUGAAGACAAAAAAGAACUCUAGUCAUUUAAUCAUGAAAUACAUCCGCUGCCGGCUGGUGACAUUUGUGGUUAUACUGUUGGCAUGUAUCUACUUGAGCUAUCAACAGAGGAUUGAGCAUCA` gave a bound/input enrichment of 0.195 ratio.

Single results of other studies
With `PhoQ, residues 284 288 289 292 302 303 GANMMA` the fold induction was 3.58 (PhoP, residues 12 14 15 18 19 TQAIL (Escherichia coli, UniProt P23836); Sort-seq, item: YFP reporter; E. coli; PhoQ-PhoP variant library, together with: 10 µM Mg2+; baseline: high Mg2+ state, higher = stronger signaling).

For quick reference, copied from above (block 1):
The log fluorescence of `GAAAATGCCCTTTTGGTGAGGTGCTAG` is reported as 0.314 z-score.
For `TCAATCATTGTTTTCAGACTGTGCTAG`, the log fluorescence was 0.243 z-score.
For `TTTGGTTTCGGGTATCGGTTAGTGCTA`, the log fluorescence was 8.96 z-score.
`CTTTTTTTCTTTTATTAGTGGTGCTAG` gave a log fluorescence of 2.82 z-score.
`GACGGAATCCTTCTCCTGACGTGCTAG` gave a log fluorescence of -0.374 z-score.
The log fluorescence of `TTAGATATCGGACTGGGTTAGTGCTAG` is reported as 0.194 z-score.
For `TCAAATTTTGTCATCTAACTGTGCTAG`, the log fluorescence was -0.192 z-score.
